Measured values gathered from unrelated publications.
Parts stem from different laboratories: compare values within a part only.

Set 1 — method: universal PBM; form: double-stranded DNA, one strand shown; sample: in vitro; concentration: not given; reading: higher = stronger binding
Target: Sal-like protein 4, full length isoform B (SALL4, Homo sapiens, UniProt Q9UJQ4-2, residues 1-616)
Setting: 8-mer, flanks averaged, mean of replicates
Oligonucleotide	E-score
GATGCCGC	-0.367
ACAAGCTG	-0.166
GAACGCCA	-0.2
GGTGATTA	0.127
CAGGGCTC	-0.216
CGCTGAAC	-0.047
CGCGTAAA	0.181
CGCGCAAG	-0.155
AGCTAGCT	-0.0242
ACCTGACA	-0.117
CGTTCGAC	-0.161
CCGTGAAC	-0.0973
ACTAGACC	-0.00888
CAATGCCC	-0.156
CATCTATC	0.104
CCGGGTTA	-0.228
CCGCACAG	-0.241
ACTACCTC	-0.00262
AGTAAACG	0.0906
CTAGCATC	-0.137
ATGACCAC	-0.0866
CCCTGTAA	0.0182
GGAGTAAC	-0.161
CGGGGCGA	-0.293
TGCGTGAA	0.0772

Set 2 — method: protein-binding microarray; form: double-stranded DNA, one strand shown; sample: in vitro; concentration: 250 nM; setting: 60-bp whole probe; with: salmon DNA 0.4 mg/ml; baseline: random background probes; reading: higher = stronger binding; constant ends, left off below: GCCTAGCAC … GTCTTGATTCGCTTGACGCTGCTG
Target: Interferon regulatory factor 7, full length, phosphomimetic (IRF7, Homo sapiens, UniProt Q92985, residues 1-503, S101K/S471D/S472D/S475D/S476D/S477D/S483D/S484D/S487D)
UniProt Q92985, sequence (whole entry, unmodified, looked up): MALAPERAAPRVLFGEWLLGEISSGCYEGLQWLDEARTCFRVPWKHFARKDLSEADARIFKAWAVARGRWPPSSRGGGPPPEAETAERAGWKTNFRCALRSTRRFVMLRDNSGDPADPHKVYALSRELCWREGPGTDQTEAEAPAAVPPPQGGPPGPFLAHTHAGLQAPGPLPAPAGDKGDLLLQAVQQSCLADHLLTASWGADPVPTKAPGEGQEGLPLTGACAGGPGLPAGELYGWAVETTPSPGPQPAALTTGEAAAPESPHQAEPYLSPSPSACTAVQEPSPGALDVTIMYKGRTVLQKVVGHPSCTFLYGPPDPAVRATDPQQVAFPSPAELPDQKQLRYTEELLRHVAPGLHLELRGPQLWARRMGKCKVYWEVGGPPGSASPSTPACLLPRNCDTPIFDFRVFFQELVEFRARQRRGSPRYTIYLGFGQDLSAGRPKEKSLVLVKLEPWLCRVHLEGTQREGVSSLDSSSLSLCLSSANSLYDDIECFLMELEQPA
Oligonucleotide	log fluorescence [z-score]
TTAGATTTCAGACTTGATTAGTGCTAG	0.261
TCATTTTCCTACATCAGACTGTGCTAG	2.52
TCATGTTTTTCATTATTACTGTGCTAG	1.24
TCACCTTCCCCTCTAGGACTGTGCTAG	0.887
GACGGTATACTTTTCCTGACGTGCTAG	0.279
TTCGTTTTGTGTCTGGGCATGTGCTAG	1.41
TCTTTTTGCACTCTCTACATGTGCTAG	1.79
TTACGTATCGACACTGGGTTAGTGCTA	0.026
TGCTTTCTCTTTCACTGCTGGTGCTAG	3.25
GACGGTTTCGGTTTGGGGACGTGCTAG	14.2
GACGGACTGGACTATCGGGAAGTGCTA	-0.644
TTAGGTCTCCTTTTCCCTTAGTGCTAG	1.78
TTAGGTTCCGGGTTTCGGTTAGTGCTA	8.39
AAATGATTGGTTGAACATGAGTGCTAG	-0.405
TTAGATATCAGCCTCGATTAGTGCTAG	0.236
GACGGTTTCAGTATCGAGACGTGCTAG	2.7
TTATGTATCGGGTTTCGGTTAGTGCTA	6.37
GACGATCTCAGACTGGATACGTGCTAG	-0.287
TTAGATTTCCGTTCCGATTAGTGCTAG	1.73
TCCAATTCTCTTTTCACTTTGTGCTAG	2.13
GACGGTCTCATTTTCCTGACGTGCTAG	1.79
TTAGGTCTACTACTGCTTTAGTGCTAG	-0.154

Set 3 — method: aptamer microarray, sandwich; form: DNA with 2'F-ANA; sample: in vitro; concentration: 200 nM; with: Cy3 exosite-II aptamer, 400 nM; reading: higher = stronger binding; oligonucleotide: GGTTGGTGTGGTTGG
Target: Prothrombin, mature alpha-thrombin (F2, Homo sapiens, UniProt P00734)
Setting: whole 15-mer aptamer, many near background
Modification	mean fluorescence intensity
2'F-ANA at 1 4 6 14	51.4 a.u.
2'F-ANA at 3 4 5 7 8 9 10 13	48.3 a.u.
2'F-ANA at 3 6 7 8 9 11 13	983 a.u.
2'F-ANA at 3 7 8 9 15	1140 a.u.
2'F-ANA at 1 2 3 4 7 9 10 11 12 14 15	50.2 a.u.
2'F-ANA at 3 4 5 7 8 10	56.9 a.u.
2'F-ANA at 1 2 4 5 6 8 9 10 15	50.1 a.u.
2'F-ANA at 5 6 9 13	53.5 a.u.
2'F-ANA at 1 2 4 7 8 10 13	52 a.u.
2'F-ANA at 2 4 7 8 11 12 14	219 a.u.
2'F-ANA at 1 5 8 9 10 11	53.6 a.u.
2'F-ANA at 3 5 12 15	277 a.u.
2'F-ANA at 1 2 4 6 9 10 11 12 14 15	48.1 a.u.
2'F-ANA at 1 2 3 4 8 10 11 12 13	60.3 a.u.
2'F-ANA at 2 4 5 6 7 8 9 10 11 12 13 15	134 a.u.
2'F-ANA at 2 6 7 8 10 11 12 14	94.2 a.u.
2'F-ANA at 2 4 11 13	221 a.u.
2'F-ANA at 1 2 7 10 13	51.4 a.u.
2'F-ANA at 1 3 5 8 10 12 15	50.8 a.u.
2'F-ANA at 6 8 13	462 a.u.
2'F-ANA at 1 4 6 11 12 14	53.2 a.u.
2'F-ANA at 1 3 4 7 9 10 11 12 13 15	112 a.u.
2'F-ANA at 1 3 4 6 9 10 12 13 14	72.5 a.u.
2'F-ANA at 1 3 4 6 8 10 11 13 14 15	53 a.u.
2'F-ANA at 1 5 7 10 11 14 15	45.8 a.u.

Set 4 — method: RNA Bind-n-Seq; form: RNA; sample: in vitro; concentration: 365 nM; baseline: no-protein control; reading: higher = stronger binding
Target: RNA binding protein fox-1 homolog 2, RRM domain, GST-SBP tag (RBFOX2, Homo sapiens, UniProt O43251-10, residues 100-194)
Setting: natural RNA segment, single round, ends assumed
Constant ends, left off below: GGGAGUUCUACAGUCCGACGAUC … UGGAAUUCUCGGGUGCCAA
Target sequence (chain): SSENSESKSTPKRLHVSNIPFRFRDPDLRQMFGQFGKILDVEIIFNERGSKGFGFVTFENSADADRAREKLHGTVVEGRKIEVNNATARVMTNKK
Oligonucleotide	RBNS enrichment (R)
GGUUUGGAGAAACUGGAGAAAUCACCCUUUUAAGGAAGAAACACUGGAAAUUUCUGCUAACACCAAGAUAUUUAAGAGUGUACAUAGUAGGUGCUCAACAAAUUUAUUGA	0.337
UUUCUUGCAUUUAUGGAGUUGCUUUUUCUUUCCCAAGGAAACUGAUGUUUGCCUGUCCGCUUUAUCUUUGUAGUACAUGAACAGUUCAGCCUUAGACUAUGUAACUGUUU	2.6
UCAACAGACACAGGCCUGGUACCUGGGAUAAAGUUGCAGCGUCCCACCAUCCACCAGACAGACCACCUGACCCCUUCUCAACUCUGUAACAUGGACGCAACCUCAACCCA	0.665
CAUCAACAUGGCACCCUGCCUCAUUGGCUAAGUGUUAAGUGAUGGGCUUAUUCUUGAAAGCAGCUUGGGGUGUCUUUUUAAAAUGUAGAAAAAAAUGUAAAGUGACAGUU	0.433
UGACACAGACUGCCUGCCUUGAAGCUGAGAAGGCACAGGGCAAGGAGCCAAGGACCACAGAGCCUCAGCCAGCCCAGGAUCCGUCCUCAUUUUAUUGGUGAUGAUGAAUG	0.255
CCCAUGAAUGGUGGCUCUCAAGCUUCUGUGCUACACAGGGGUGUGUGGUUGGGCGAGUGUCCUUGUUAAUUGAUACCUAAUUGGCCUUGGUUGGGAACAUAGCCAUGAGU	0.529
UUCCUAUCUUAGCAUUUUGGUCUCAUUGGUUUAUAGACUCUGAUAAUAUCCCUAUCCAUGGAUCAUUUGAGUAUUGACUAAUGUACAUAGGUACCCAACUGGUUGAUUAU	2.97
AAAUUAUGCAGGUGAUAACAUGGUUUGGAACUGUUUAUUGGGCUCUUUAACUGAAUUUUCAAAUGAAAUGAACUAUGCUUAUUGCUGGCACAUUGAUCCCAUUUCUGGAA	1.42
AGUAGUCUGUCAACCUCAGACACUGGUUUCGAGACAGUUUACACUUGACAGUUGUUCAUUAGCGCACAGUGCCAGAAUGCACACUGAGGUGAGUCUCCUGGAACAGUGGA	0.625
UGUAUACCCCAACAUCUUUUCCAUCUUAAUCCAGCAUCGGGCCAUUCUCAAUCCCUGGUAAUCACCUCCCUUUUACAUGGACAGACUUGAGGUGAGGCCUAAGUAUGAGG	0.763
ACAUCAAGCAUCAUCGUCCCCAUGCAACAACAACCAUCACCUUAUACAUCACUUCCUGUUUUAUGCAGCUCAAAAAACAUAGACUGAAGAUUUAUUUUUUAAUAUGUUGA	0.331
AUAAGUAGGCAGGUAAUCUUCAUGGGGACUGAGGUGAUUUUCUUGUACGUUUUACGUUUUCCUAUUUACCAGUGGGGUUUUGCUGUAGCCUGUGUAACUCUGCUCUGAGG	1.13

For quick reference, copied from above (set 3):
Modification	mean fluorescence intensity
2'F-ANA at 1 2 4 6 9 10 11 12 14 15	48.1 a.u.
2'F-ANA at 1 2 3 4 8 10 11 12 13	60.3 a.u.
2'F-ANA at 2 4 5 6 7 8 9 10 11 12 13 15	134 a.u.
2'F-ANA at 2 6 7 8 10 11 12 14	94.2 a.u.
2'F-ANA at 2 4 11 13	221 a.u.
2'F-ANA at 1 2 7 10 13	51.4 a.u.
2'F-ANA at 1 3 5 8 10 12 15	50.8 a.u.
2'F-ANA at 6 8 13	462 a.u.
2'F-ANA at 1 4 6 11 12 14	53.2 a.u.
2'F-ANA at 1 3 4 7 9 10 11 12 13 15	112 a.u.
2'F-ANA at 1 3 4 6 9 10 12 13 14	72.5 a.u.
